Results from different studies.
Parts stem from different laboratories: compare values within a part only.

Study 1
Target: Histone acetyltransferase KAT6A, winged helix 1, GST fusion (KAT6A, Homo sapiens, UniProt Q92794, residues 1-85)
Method: protein binding microarray
Form: double-stranded DNA, one strand shown
Matrix: in vitro
Tested at: not given
Notes: 8-mer, flanks averaged, mean of 2 arrays, mostly near background
Reference: not given
Reading: higher = stronger binding
Target sequence (chain): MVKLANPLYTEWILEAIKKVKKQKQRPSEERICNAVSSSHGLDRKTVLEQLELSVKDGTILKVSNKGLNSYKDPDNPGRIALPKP
Strand | E-score
CTTGTCAC | -0.0346
ACTAGTCG | -0.099
CAGTGTCC | -0.0142
GCTCGATA | -0.0539
GGCGGACA | 0.245
TCATCGAA | -0.167
ACTTCGAA | -0.265
ATGAAAGA | -0.162
TCACGGAA | 0.249
CAAGATCA | -0.154
CTTCCCGA | 0.142
GCACGCCA | 0.0979
AACGTGCA | -0.174
CTTCGTAC | -0.00807
AGTTCTGG | -0.209
AGACCCTG | -0.347

Study 2
Target: Prothrombin, mature alpha-thrombin (F2, Homo sapiens, UniProt P00734)
Method: aptamer microarray, sandwich
Form: DNA with 2'F-ANA
Matrix: in vitro
Tested at: 200 nM
Notes: whole 15-mer aptamer, many near background
Added: Cy3 exosite-II aptamer, 400 nM
Reading: higher = stronger binding
Strand: GGTTGGTGTGGTTGG
Modification | mean fluorescence intensity
2'F-ANA at 1 3 4 8 9 10 11 13 14 15 | 52.7 a.u.
2'F-ANA at 1 5 6 7 8 9 14 | 68.3 a.u.
2'F-ANA at 1 2 3 4 5 8 9 12 14 | 86.5 a.u.
2'F-ANA at 2 3 4 6 8 9 10 11 | 198 a.u.
2'F-ANA at 2 3 4 5 6 7 8 9 11 12 14 | 77.9 a.u.
2'F-ANA at 4 5 7 8 10 12 13 | 48.6 a.u.
2'F-ANA at 2 3 4 6 7 13 | 436 a.u.
2'F-ANA at 2 3 5 8 9 14 | 55.1 a.u.
2'F-ANA at 3 4 6 7 8 10 11 13 | 205 a.u.
2'F-ANA at 1 2 3 5 7 10 11 12 15 | 47.9 a.u.
2'F-ANA at 2 5 6 10 12 | 50.2 a.u.
2'F-ANA at 1 2 3 7 11 14 15 | 67.1 a.u.
2'F-ANA at 1 3 7 8 10 11 12 15 | 98.7 a.u.
2'F-ANA at 3 5 6 9 10 11 15 | 52.6 a.u.
2'F-ANA at 3 5 6 7 9 10 12 13 | 61.6 a.u.
2'F-ANA at 2 3 8 9 13 15 | 707 a.u.

Study 3
Target: Fragile X messenger ribonucleoprotein 1, C-terminal low-complexity region (Fmr1, Mus musculus, UniProt P35922)
Method: RNA Bind-n-Seq
Form: RNA
Matrix: in vitro
Tested at: 200 nM
Notes: whole 134-nt RNA, ends assumed
Added: 150 mM LiCl
Reference: input library
Reading: higher = stronger binding
Each molecule: 7-deaza-guanosine replaces G
All sequences stand within: GGGAGUUCUACAGUCCGACGAUC … UGGAAUUCUCGGGUGUCAAGG
Strand | log2 enrichment
GCAGGAAGUAAAAACAAAUGGAAAUGCUUCGGAUAGUGGCAGGGGUGGGGGUUGAAAAGGAAAGGGUGGGAUGGGAGUGGGUAAAGAGUU | 2.03
UCCUGUGCUACACAUCGUAUGUACCGAAUCAAACCCCCCCAAAUUUAAACCCCCCCAAAAAAGUAUUAUGUUACGCCGUUCGGAUCUGCA | 2.25
UGGCCCUGGUGGCAUGCGGGGAGGAAGAGGUGGUCUCAUGGAUCGUGGUGGUCCCGGUGGAAUGUUCAGAGGUGGCCGUGGUGGAGACAG | 0.428
UAAUUUUAGAGGAGGAUCUGAUGGAUAUGGCAGUGGACGUGGAUUUGGGGAUGGCUAUAAUGGGUAUGGAGGAGGACCUGGAGGUGGCAA | 0.248
UUUGCAGGGAGUGGUACGGGUAUCACUUUCCGGAGCUGGUGAAGAUCAUCAACGACAAUGCCACAUACUGCCGUCUUGCCCAGUUUAUUG | -0.587
UGGCCCUGGUGGCAUGCGGGGAGUAAGAGGUGGCCUCAUGGAUCGUGGUGGUCCCGGUGGAAUGUUCAGAGGUGGCCGUGGUGGAGACAG | 0.3
CCUGUGCUACACAUCGUAUGUACCGAAUCGGUUUUUUUGGGGUUUUUUUGGGUUUUUUUGGAAAGUAUUAUGUUACGCCGUUCGGAUCUG | 0.891
UGGGAGGUGGAAUUUGUUUAUUUUUUUAGCUCAUUUCCAGGGGUGGGAAUUUUUUUUUAAUAUGUGUCAUGAAUAAAGUUGUUUUUGAAA | 1.21
UCCUCAAGUCCUGUGCUACACAUCGUAUGUACCGAAUCGGUGGGUGGUGGGGAAAGUAUUAUGUUACGCCGUUCGGAUCUGCACUUCCAG | 0.89
GUCCUGUGCUACACAUCGUAUGUACCGAAUCGGAAAAAGGGAAAAAGGGGAAAAAGGGGAAAGUAUUAUGUUACGCCGUUCGGAUCUGCA | 0.644
GCAGGAAGUAAAAACAAAUGGAAAUGCUUCGGAUAGUGGCAGGGGUGGGGGUUGCUAAGGACAGGGUGGGAUGGGAGUGGGUAAAGAGUU | 1.07

Study 4
Target: RING finger protein unkempt homolog, zinc fingers 1-6, GST-SBP tag (UNK, Homo sapiens, UniProt Q9C0B0, residues 30-357)
UniProt Q9C0B0, sequence (30-357, looked up): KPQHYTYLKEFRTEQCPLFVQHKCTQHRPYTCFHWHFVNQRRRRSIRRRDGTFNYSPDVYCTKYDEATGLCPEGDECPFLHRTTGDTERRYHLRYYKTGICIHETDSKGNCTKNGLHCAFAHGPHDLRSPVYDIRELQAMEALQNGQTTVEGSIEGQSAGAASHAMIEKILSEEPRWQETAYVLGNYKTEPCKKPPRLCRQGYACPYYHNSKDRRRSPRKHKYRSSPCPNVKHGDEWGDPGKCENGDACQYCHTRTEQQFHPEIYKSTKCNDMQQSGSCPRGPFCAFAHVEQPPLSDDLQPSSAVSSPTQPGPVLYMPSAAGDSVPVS
Method: RNA Bind-n-Seq
Form: RNA
Matrix: in vitro
Tested at: not given
Notes: RNA with constant flanks, human and mouse sites, ends assumed
Reference: input RNA pool
Reading: higher = stronger binding
All sequences stand within: GGGAGUUCUACAGUCCGACGAUC … CAACAGAGGAUUGAGCAUCA
Strand | bound/input enrichment [ratio]
GACCAAGCUCUUGCUGACAUAAGAGAAAAUGAACAGAGCCUCCUGGAAUACCUAGAGAAACAGCGCAACAGAAUUGGCUGUAGGACCAUAGUCUAUUGGGGGAUUGGUAGGAACCGUUAC | 0.667
CCAGAUGUCAAAUUAAACCUCGGUGUAAGCGGAGAUUUCAUCAAAGAAUCUACAGCUACUACAUUUCUGAGACAAAGAGGCUAUGGCUGGCUUUUGGAAGUUGAAGAUGAGGAUCCUGAA | 0.136
GCUGCUAGGCCCCUUGAAAACAGAGCAGGGGGGCCUGUGGCACGUUCAGAGGAGCCUGGUGCCCCGCUGCCCGUGGCCGUCGGCACUGCCGAGCCAGGGGGCAGUAUGAAGACCACAUUC | 0.0922
AUUCUGAAUAUAUUUUUUUCUGUAAUUUUAUCAUUACACGAUGUUUGCAAUACGUGCUUUGUUUUUUAAUUUGAAAGCAAACUUUUCUACUGUUGAAAGACAUUUUUUGACAACUUGACC | 0.962
UCACUUUGUGAUUAUUUCACUUUAGAUGCUGAUGAUUUGUUUUUGUAUUUUUAAUGGGGGUAGCAGCUGGACUACCCACGUUCUCACACCCACCGUCCGCCCUGCUCCUCCCUGGCUGCC | 0.511
AAUGGGCGGCUGGGACAGGGGAACGCUUGCAGGAUGGACCCCCUACCCCAAGAAUGGAAGUUAGGGGUGGUUGUUUCUCCAUUUAUGGCAUUGGGUUCGGAGAUGGGCCAUGAUGAAGGG | 0.353
UCUCCAUCUUGUUACAUUCCACUGCGGAGACUACAGGAUUUGGCCUCCAUGAUCAAUGUAGAGUAUUUAAAUGGGUCUGCUGAUGGAUCAGAAUCCUUUCAAGACCCUGAAAAAAGUGAU | 0.417
CAAUUGAAGCGCUGAACGCAGUUCAUGGAUUCAUUGCAGAAAAAAUCCGAGAAAUGCCCCAAAAUGUUGCCAAGACAGAACCAGUCAGUAUCCUACAACCUCAGACCACCGUUAAUCCUG | 0.149
AAGUUCACUGGAAGUGAGAUUCGGGUGAGGGAUGACAAGAUGCCAUUGGCGCACCUUGCAAUAGCUGUUGAAGCAGUUGGUUGGGCCCAUCCAGACACGAUCUGUCUCAUGGUCGCAAAC | 0.134
AGAACUUCAGUAAAUUCUCAGAGAGAAUACCAGCUAGUGAAACUACUUUUGGAUAAUACUCAAAUUAUGAAUGCUCUACAGAAAUACUCCAACUGCCCUACAGAUGUUAGGCAGUGGGCA | 1.28
CACCAACAGUAUGUGCAGCGGAUAGAGAAGCAGUUUCUUUUGUAUGCAUACUGGAUAGGCCUGGGGAUUUUGUCCUCUGUUGGUCUUGGAACAGGACUGCACACCUUUCUGCUUUAUCUG | 0.0639
